Measurements collected from several papers.
Lines come from different studies, so protocols differ. Numbers after ± are the reported error.
Sequence of UniProt Q4GZT4 (whole entry, looked up): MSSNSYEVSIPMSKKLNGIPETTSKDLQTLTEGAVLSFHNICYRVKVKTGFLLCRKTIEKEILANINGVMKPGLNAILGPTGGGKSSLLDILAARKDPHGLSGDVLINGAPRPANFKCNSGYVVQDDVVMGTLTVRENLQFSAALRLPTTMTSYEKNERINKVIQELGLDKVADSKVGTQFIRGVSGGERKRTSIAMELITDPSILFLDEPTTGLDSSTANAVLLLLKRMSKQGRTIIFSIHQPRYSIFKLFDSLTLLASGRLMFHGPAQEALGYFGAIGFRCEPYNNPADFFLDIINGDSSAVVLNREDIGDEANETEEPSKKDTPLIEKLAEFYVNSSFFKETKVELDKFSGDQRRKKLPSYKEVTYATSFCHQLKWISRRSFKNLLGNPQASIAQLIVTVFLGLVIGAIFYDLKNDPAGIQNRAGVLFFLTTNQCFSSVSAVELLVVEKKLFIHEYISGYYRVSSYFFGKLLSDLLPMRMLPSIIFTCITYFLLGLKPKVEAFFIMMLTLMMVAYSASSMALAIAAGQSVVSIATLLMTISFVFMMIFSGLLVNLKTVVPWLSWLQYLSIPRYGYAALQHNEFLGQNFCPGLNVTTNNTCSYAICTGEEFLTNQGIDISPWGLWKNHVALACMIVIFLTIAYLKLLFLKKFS
Sequence of UniProt P05177 (whole entry, looked up): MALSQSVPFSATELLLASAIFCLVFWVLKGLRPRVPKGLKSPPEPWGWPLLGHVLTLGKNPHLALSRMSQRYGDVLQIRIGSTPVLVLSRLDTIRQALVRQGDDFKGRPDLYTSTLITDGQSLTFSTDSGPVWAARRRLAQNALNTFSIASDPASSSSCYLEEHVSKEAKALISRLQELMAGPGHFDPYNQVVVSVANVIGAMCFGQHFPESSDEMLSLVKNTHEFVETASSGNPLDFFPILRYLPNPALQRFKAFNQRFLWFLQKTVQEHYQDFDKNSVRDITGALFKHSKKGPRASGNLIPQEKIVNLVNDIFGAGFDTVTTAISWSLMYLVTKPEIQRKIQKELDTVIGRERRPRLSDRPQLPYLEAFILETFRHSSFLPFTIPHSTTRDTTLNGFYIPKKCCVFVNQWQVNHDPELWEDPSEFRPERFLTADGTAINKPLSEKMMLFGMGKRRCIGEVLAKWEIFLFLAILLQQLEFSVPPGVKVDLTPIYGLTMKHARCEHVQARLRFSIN
Sequence of UniProt P22413 (whole entry, looked up): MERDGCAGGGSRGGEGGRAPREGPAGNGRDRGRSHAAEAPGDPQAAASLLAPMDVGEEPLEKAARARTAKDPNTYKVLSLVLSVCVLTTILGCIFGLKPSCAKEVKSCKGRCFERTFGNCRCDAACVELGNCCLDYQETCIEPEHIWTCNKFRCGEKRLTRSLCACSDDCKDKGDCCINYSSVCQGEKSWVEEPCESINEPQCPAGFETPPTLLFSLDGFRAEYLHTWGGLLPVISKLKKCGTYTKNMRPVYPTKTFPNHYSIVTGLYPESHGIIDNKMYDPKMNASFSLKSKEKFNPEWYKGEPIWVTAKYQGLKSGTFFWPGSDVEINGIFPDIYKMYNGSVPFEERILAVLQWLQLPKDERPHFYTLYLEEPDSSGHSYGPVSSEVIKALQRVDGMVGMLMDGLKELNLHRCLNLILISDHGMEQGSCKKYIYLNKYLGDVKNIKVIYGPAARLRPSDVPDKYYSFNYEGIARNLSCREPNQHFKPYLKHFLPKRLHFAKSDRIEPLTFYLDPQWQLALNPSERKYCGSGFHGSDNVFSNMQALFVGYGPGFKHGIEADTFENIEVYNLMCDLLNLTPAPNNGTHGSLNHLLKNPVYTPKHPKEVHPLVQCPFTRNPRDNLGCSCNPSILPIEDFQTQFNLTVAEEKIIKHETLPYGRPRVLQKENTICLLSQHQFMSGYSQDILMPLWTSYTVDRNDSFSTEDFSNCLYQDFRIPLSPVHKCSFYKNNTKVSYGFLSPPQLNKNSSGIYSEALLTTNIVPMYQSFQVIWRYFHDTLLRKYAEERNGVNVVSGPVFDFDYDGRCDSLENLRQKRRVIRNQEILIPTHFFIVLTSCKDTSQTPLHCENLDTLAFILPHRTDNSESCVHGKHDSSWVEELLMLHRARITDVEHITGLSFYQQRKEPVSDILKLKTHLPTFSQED
Sequence of UniProt P33260 (whole entry, looked up): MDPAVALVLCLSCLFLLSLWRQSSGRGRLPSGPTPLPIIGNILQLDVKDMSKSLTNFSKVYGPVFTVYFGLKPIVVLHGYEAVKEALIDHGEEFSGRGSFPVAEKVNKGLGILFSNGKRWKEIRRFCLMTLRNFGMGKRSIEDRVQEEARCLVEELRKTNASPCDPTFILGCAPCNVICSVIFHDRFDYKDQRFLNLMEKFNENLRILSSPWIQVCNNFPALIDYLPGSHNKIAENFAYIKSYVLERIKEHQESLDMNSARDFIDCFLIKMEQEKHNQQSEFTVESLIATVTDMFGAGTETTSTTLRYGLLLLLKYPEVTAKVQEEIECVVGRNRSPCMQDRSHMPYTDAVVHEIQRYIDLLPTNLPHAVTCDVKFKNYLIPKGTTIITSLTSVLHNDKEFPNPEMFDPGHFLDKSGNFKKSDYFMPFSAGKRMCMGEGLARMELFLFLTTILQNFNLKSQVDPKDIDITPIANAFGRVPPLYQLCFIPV
Sequence of UniProt P08684 (whole entry, looked up): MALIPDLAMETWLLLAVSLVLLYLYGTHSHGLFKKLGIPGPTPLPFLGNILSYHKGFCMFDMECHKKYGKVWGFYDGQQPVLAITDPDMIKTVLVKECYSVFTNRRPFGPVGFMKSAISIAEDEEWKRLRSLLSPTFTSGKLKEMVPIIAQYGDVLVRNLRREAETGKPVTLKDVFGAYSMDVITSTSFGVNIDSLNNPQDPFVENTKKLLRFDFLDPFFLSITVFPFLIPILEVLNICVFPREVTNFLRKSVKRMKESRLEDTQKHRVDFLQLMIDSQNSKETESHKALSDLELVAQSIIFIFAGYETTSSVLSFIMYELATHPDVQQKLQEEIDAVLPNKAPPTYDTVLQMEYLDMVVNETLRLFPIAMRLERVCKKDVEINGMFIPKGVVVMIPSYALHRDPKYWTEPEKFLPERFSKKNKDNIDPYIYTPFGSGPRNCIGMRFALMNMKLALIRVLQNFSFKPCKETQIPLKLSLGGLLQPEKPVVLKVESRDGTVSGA

CC[C@H]1[C@@H](O)[C@@H]2[C@H](CC[C@]3(C)[C@@H]([C@H](C)CCNC(=O)NS(=O)(=O)c4ccc(C(C)(C)C)cc4)CC[C@@H]23)[C@@]2(C)CC[C@@H](O)C[C@@H]12  Tmax median (Cytochrome P450 3A4 (CYP3A4, Homo sapiens, UniProt P08684); substrate; human, plasma; 10 mg, alone, study day 1): 4 h
C=CC(=O)N1CCN(c2nc(=O)n(-c3c(C)ccnc3C(C)C)c3nc(-c4c(O)cccc4F)c(F)cc23)[C@@H](C)C1  half-life (glutathione; reaction with glutathione, HPLC; pH 7.4, 37 °C, with: 5 mM glutathione): 1 h
CC1(C)CCC2(CC1)N[C@@H](C(=O)N[C@@H]1CC[C@@H](C(N)=O)OC1)[C@H](c1ccnc(Cl)c1F)[C@]21C(=O)Nc2cc(Cl)ccc21  Papp A to B (ABCB1 (Homo sapiens, UniProt P08183); Caco-2 monolayers; 30 µM, 120 min, no inhibitor): 3.66 ×10⁻⁶ cm/s
CNCc1ccc(-c2[nH]c3cc(F)cc4c3c2CCNC4=O)cc1  patients with adverse event (item: Vomiting; human patients; oral, dose not given, all grades, all doses): 42.9%
Cc1ccnc([18F])c1-c1cccc(N2C[C@H](N3CCN(C(=O)c4nccs4)CC3)CC2=O)c1  VT (monoacylglycerol lipase; PET, arterial input; rhesus monkey, brain hippocampus; intravenous, baseline): 5.41 mL/cm3
Cn1c(=O)c2c(ncn2C)n(C)c1=O  Tmax (Cytochrome P450 1A2 (CYP1A2, Homo sapiens, UniProt P05177); human, plasma; oral, 200 mg, day 1, alone, median): 1 h
Cc1oc2ccccc2c1Cc1cc(I)c(OCC(=O)O)c(I)c1  inhibition (KCNH2 (Homo sapiens, UniProt Q12809, Y652A); hERG current, inhibitor, two-electrode voltage clamp; Xenopus oocytes expressing hERG1 Y652A; 50 µM, almost voltage-independent): 63 ± 4%
c1csc(CNc2cc[nH]n2)c1  cells with structural aberrations (human peripheral blood lymphocytes (female); 2160 µg/mL, 4 h, repeat, with: without S9): 5%
CC(C)C[C@H](NC(=O)C[C@H](O)[C@H](CC(C)C)NC(=O)[C@H](Cc1c[nH]cn1)NC(=O)CNC(=O)[C@@H](NC(=O)[C@H](C)NC(=O)[C@H](Cc1c[nH]c2ccccc12)NC(=O)[C@H](CCC(N)=O)NC(=O)[C@@H](Cc1ccccc1)NC(=O)COCCOCCNC(=O)CCC(C(=O)O)N1CCN(CC(=O)O)CCN(CC(=O)O)CCN(CC(=O)O)CC1)C(C)C)C(N)=O (stereo partly shown) [lutetium-177 labelled]  tissue uptake (BALB/c nu/nu mice, female, liver; 100 pmol, 30 min, time course 0.5 h, with: PA 300 µg): 1.2 ± 0.3 %ID/g
Cn1cc(-c2ccc(-c3cncc(Cl)c3N3CCC4(CCNC4=O)CC3)cc2)cn1  log2 fold change (COLO 205; gene expression, microarray, item: FABP5 mRNA; concentration not given, 6 h; baseline: untreated cells): -1.29
CN1C[C@@H]2C[C@H]1CN2c1cc2c(cc1F)c(=O)c(C(=O)O)cn2C1CC1  efflux ratio (Broad substrate specificity ATP-binding cassette transporter ABCG2 (ABCG2, Bos taurus, UniProt Q4GZT4); transepithelial transport; MDCK-II transduced with ABCG2; 10 µM, 4 h; baseline: B-A over A-B): 2.38 ± 0.64
Nc1nc2c(ncn2[C@@H]2O[C@@H]3COP(=O)(O)O[C@@H]4[C@@H](O)[C@H](n5cnc6c(N)ncnc65)O[C@@H]4COP(=O)(O)O[C@@H]2[C@@H]3O)c(=O)[nH]1  stability time (ENPP1 (Homo sapiens, UniProt P22413); substrate; 100 µM): ≥ 8 h
C[C@H]1CN(C2COC2)CCN1c1ccc(Nc2cc(-c3ccnc(N4CCn5c(cc6c5CC(C)(C)C6)C4=O)c3CO)cn(C)c2=O)nc1  remaining compound (Cytochrome P450 2C18 (Homo sapiens, UniProt P33260); recombinant enzyme; 1 µM, 60 min; baseline: 0 min): 93.9 ± 9.2%

A few entries again:
Cn1c(=O)c2c(ncn2C)n(C)c1=O  Tmax (Cytochrome P450 1A2 (CYP1A2, Homo sapiens, UniProt P05177); human, plasma; oral, 200 mg, day 1, alone, median): 1 h
